# Measurements of several laboratories.
# Each numbered part is a random draw from the data of one study; scales do not carry over between parts.

# Block 1
# Target: Interferon regulatory factor 5, full length, phosphomimetic (IRF5, Homo sapiens, UniProt Q13568-2, residues 1-514, S451D/S453D/S456D/S462D)
# Method: protein-binding microarray
# Molecule type: double-stranded DNA, one strand shown
# Sample: in vitro
# Concentration: 940 nM top
# Setting: 60-bp whole probe
# Added: salmon DNA 0.4 mg/ml
# Baseline: random background probes
# Direction: higher = stronger binding
# Constant ends, left off below: GCCTAGCAC … GTGCTAGGTCTTGATTCGCTTGACGCTGCTG
Oligonucleotide,fitted relative affinity
TCAACTTTCTACGTCTGACT,0.819 z-score
GACAGTCTCCTACTGCTGAC,0.214 z-score
AACTGCTGCCGTCCACCACT,-0.0753 z-score
GACGATTTCAGTTCCGCGAC,0.651 z-score
GACGGTTTCGGTTGCGGGAC,13.5 z-score

# Block 2
# Target: Sal-like protein 4, full length isoform A (SALL4, Homo sapiens, UniProt Q9UJQ4, residues 1-1053)
# Sequence of UniProt Q9UJQ4 (whole entry, looked up): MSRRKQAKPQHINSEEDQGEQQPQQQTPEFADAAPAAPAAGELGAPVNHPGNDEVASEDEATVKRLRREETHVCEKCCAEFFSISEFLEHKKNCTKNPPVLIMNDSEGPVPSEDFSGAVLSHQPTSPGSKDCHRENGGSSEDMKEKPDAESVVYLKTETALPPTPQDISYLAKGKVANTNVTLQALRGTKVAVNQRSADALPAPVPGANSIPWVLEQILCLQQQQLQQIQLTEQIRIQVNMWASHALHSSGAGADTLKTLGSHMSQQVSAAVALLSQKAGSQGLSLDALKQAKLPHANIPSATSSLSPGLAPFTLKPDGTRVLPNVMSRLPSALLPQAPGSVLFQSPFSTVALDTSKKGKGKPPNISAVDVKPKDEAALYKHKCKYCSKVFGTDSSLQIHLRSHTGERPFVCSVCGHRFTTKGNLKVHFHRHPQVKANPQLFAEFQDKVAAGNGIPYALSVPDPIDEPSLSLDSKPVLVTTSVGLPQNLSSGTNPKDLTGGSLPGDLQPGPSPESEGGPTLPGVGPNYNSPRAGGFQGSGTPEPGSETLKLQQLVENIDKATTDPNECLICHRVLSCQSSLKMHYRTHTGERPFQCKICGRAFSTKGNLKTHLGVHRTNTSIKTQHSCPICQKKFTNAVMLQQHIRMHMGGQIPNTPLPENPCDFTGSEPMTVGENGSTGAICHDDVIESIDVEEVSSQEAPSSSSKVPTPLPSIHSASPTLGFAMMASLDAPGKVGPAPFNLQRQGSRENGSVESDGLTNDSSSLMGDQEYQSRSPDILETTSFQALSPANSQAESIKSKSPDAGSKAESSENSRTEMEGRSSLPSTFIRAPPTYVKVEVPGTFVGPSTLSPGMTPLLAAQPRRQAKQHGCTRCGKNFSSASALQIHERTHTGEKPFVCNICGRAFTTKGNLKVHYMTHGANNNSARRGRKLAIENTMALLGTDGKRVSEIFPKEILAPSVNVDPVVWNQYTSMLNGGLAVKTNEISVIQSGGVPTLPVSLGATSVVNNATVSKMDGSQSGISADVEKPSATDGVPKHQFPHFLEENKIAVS
# Method: universal PBM
# Molecule type: double-stranded DNA, one strand shown
# Sample: in vitro
# Concentration: 600 nM
# Setting: 8-mer, flanks averaged, mean of replicates
# Direction: higher = stronger binding
Oligonucleotide,E-score
AGCGGCGC,-0.338
GTCGTTCA,0.0324
GTCTTCTA,0.105
AAATAGTT,0.273
CGGCCAGA,-0.282
CACCACTC,-0.121

# Block 3
# Substance: Histone H2B type 1-C/E/F/G/I (Homo sapiens, UniProt P62807)
# Method: cross-linking MS
# Setting: hits only
partner,interaction screen
"H2AC25 (Homo sapiens, UniProt Q7L7L0)",cross-linked
"H3-4 (Homo sapiens, UniProt Q16695)",cross-linked
"SEPTIN1 (Homo sapiens, UniProt Q8WYJ6)",cross-linked
"RCC2 (Homo sapiens, UniProt Q9P258)",cross-linked

# Other studies, line by line
Substance,target,test,test system,setting,scale,quantity,value
"PhoQ, residues 284 288 289 292 302 303 QWGLFV","PhoP, residues 12 14 15 18 19 IQSYL (Escherichia coli, UniProt P23836)","Sort-seq, refers to: YFP reporter",E. coli,"PhoQ-PhoP variant library, added: 10 µM Mg2+","baseline: high Mg2+ state, higher = stronger signaling",fold induction,3.92

# Excerpt of the above (block 1):
Oligonucleotide,fitted relative affinity
AACTGCTGCCGTCCACCACT,-0.0753 z-score
GACGATTTCAGTTCCGCGAC,0.651 z-score
